# Experimental data collected from several papers.
# Every numbered part comes from another study and shows a few of its results, in no order. Changes are numbered by the printed parent chain.

# Block 1
# Target: Centromere-binding protein 1, full length, His-tagged (CBF1, Saccharomyces cerevisiae, UniProt P17106, residues 1-351)
# Sequence of UniProt P17106 (whole entry, looked up): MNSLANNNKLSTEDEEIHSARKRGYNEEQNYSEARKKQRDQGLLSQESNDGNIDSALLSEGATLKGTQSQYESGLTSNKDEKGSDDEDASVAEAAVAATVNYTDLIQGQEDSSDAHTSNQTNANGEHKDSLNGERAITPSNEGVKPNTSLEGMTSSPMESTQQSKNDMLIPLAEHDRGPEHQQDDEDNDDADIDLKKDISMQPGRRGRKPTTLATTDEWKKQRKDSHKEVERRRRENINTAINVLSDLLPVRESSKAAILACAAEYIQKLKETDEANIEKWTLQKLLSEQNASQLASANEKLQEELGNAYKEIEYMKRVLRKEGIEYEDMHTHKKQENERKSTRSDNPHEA
# Technique: competition protein-binding microarray
# Molecule type: double-stranded DNA, one strand shown
# Medium: in vitro
# Tested at: 2 µM
# Notes: whole 60-bp probe, lowest competitor level
# Added: Pho4 competitor, 0.05 µM
# Reading: higher = stronger binding
# Constant ends, left off below: … GTCTTGATTCGCTTGACGCTGCTG
Sequence,fluorescence intensity [a.u.]
CCGGGGACGACGCTCCTCGTGCTTTCTTCCCATCTA,74.5
TGCGCAACAACTTCGCACGTGTTTTTATGTCTAGAA,1750
CTTTCCCGATCTTGTAAGGTGGGTGTAGCACATTTG,62.4
CGTCCTAGTGATTGTCACACGACTTCCATGAGGAAG,126
AAGTGCAGATCGCTGTCTTGCTCCAATCCTCTTATT,60.4
CATACCCAACCTTTTCACGTGACTTAAGATATTTGT,6990
ATATTATTGATTTTGCACGTGACGAAATGAAAAACA,7360
TGCGCAACAACTTGGACTGTGGGTGTATGTCTAGAA,59.3
TACTGTACCAATCACCACGTTTTGACTATGTGGACT,104
CGCTTGTACAAGCTGAACGTGAGAAGCAACGATCCT,87.1
TGTTTCGCGGCGTTACACGTGAGATCCTATTATTTC,1240
ACAACGTAAAACTTGCATGTGAGGCTTAGGTGATTT,142
AAGTACAAGTGAGGGATCGTGATTGTAGAGCACTCT,74.9
CCCTGCCGTCCTCAACACGTTGCACCATTTGATGTT,101
TTTCAAAATCGTTTGCACGTGCTTTCGACTGCACTG,2080
GGTTTCTGAGGCTCGCACAGGAGGCACCCCAGTTCT,66.1
TTTATTGATTAACAAATAATCGAGACACACTATAGA,88.5
GTCTTGTCTCATTGGGATGTGGGTGTCCCCACTTCA,92.2
GATATGTTTCTAATGCGCGTGTGAAGGGAATTTCGG,89.4
GTCTTGTCTCATTTTCACGTGCCTTTCCCCACTTCA,991
CGTCCTAGTGATTGCGGCGTGGGTGCCATGAGGAAG,81.7
ACCTTGCGGCGATATCACAATTTTCCTTGTACACTC,84.3

# Block 2
# Target: Ras GTPase-activating protein-binding protein 1, full length (G3BP1, Homo sapiens, UniProt Q13283)
# Sequence of UniProt Q13283 (whole entry, looked up): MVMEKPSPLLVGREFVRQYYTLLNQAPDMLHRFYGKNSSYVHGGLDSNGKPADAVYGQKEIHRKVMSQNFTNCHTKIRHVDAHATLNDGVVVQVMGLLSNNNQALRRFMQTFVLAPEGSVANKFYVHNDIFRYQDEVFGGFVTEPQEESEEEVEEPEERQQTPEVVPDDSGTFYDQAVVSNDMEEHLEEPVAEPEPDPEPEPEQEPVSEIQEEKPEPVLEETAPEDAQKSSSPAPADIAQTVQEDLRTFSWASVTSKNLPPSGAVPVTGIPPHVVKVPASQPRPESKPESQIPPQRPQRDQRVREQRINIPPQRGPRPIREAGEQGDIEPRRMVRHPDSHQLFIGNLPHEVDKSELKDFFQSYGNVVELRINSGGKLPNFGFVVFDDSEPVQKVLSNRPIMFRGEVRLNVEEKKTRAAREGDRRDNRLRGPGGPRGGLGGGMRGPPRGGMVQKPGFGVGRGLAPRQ
# Technique: RNA Bind-n-Seq
# Molecule type: RNA
# Medium: in vitro
# Tested at: 200 nM
# Notes: whole 134-nt RNA, ends assumed
# Added: 150 mM LiCl
# Baseline: input library
# Reading: higher = stronger binding
# Library: 7-deaza-guanosine replaces G
# Constant ends, left off below: GGGAGUUCUACAGUCCGACGAUC … UGGAAUUCUCGGGUGUCAAGG
Sequence,log2 enrichment
AAGUCCUGUGCUACACAUCGUAUGUACCGAAUCGGGUUUUUGGGAGGGUUUUUGGGAAAGUAUUAUGUUACGCCGUUCGGAUCUGCACUU,-0.547
UCAAGUCCUGUGCUACACAUCGUAUGUACCGAAUCGGGUUGGGGUUGGGGUUGGGAAAGUAUUAUGUUACGCCGUUCGGAUCUGCACUUC,-0.412
GUCCUGUGCUACACAUCGUAUGUACCGAAUCAAAUUUUUUUAAAUUUAAACCCCCAAAAAAGUAUUAUGUUACGCCGUUCGGAUCUGCAC,0.293
CCUGUGCUACACAUCGUAUGUACCGAAUCAAAUUUUUUUAAAUUUUUUUAAACCCCCAAAAAAGUAUUAUGUUACGCCGUUCGGAUCUGC,0.443
UGGCCCUGGUGGCAUGCGGGGAGGAAGAGGUGGCCUCAUGGAUCGUGGUGGUCCCGGUGCAAUGUUCAGAGGUGGCCGUGGUGGAGACAG,-0.462
UGGGAGGUGGAUUUUGUUUAUUUUUUUAGCUCAUUUCCAGGGGUGGGAAUUUUUUUUUAAUAUGUGUCAUGAAUAAAGUUGUAUUUGAAA,-0.101
CUCAAGUCCUGUGCUACACAUCGUAUGUACCGAAUCGGGGCCGGCCGGGGCCGGAAAGUAUUAUGUUACGCCGUUCGGAUCUGCACUUCC,0.677
UGGCCCUGGUGGCAUGCGGGGAGGAAGAGGUGGCCUCAUGGAUCGUGGUGGUCCCGGUGGAAUGUUCAGAGGUGCCCGUGGUGGAGACAG,-0.376
CCUGUGCUACACAUCGUAUGUACCGAAUCGGGGAAAGGGGUUUUUUUGGGGAAAAAGGGGAAAGUAUUAUGUUACGCCGUUCGGAUCUGC,0.449
GUCCUGUGCUACACAUCGUAUGUACCGAAUCGGGGUUUUUGGUUUUUGGGUUUUUGGGAAAGUAUUAUGUUACGCCGUUCGGAUCUGCAC,-0.418
UUGUUUUUUUUUUGUUCUUUUUUUCCAUGUCACUAAAGGCCCUCGGGACCAAGGAUCACGUCAUGACUCCGGUGAGUUCACACGUGGUGG,1.6

# Block 3
# Target: Histone acetyltransferase KAT6A, winged helix 1, GST fusion (KAT6A, Homo sapiens, UniProt Q92794, residues 1-85)
# Technique: protein binding microarray
# Molecule type: double-stranded DNA, one strand shown
# Medium: in vitro
# Tested at: not given
# Notes: 8-mer, flanks averaged, mean of 2 arrays, mostly near background
# Baseline: not given
# Reading: higher = stronger binding
# Construct (chain): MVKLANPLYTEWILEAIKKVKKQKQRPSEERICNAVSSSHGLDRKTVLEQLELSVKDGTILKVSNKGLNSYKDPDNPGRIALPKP
Sequence,E-score
CGTACGAG,0.175
ACGCCGTC,0.416
GCCAGCTA,-0.119
AAGTGGAC,-0.153
ACTTCAAC,-0.153
ATATGGAG,-0.0763
CACTTTCC,-0.106
AGAGCGAA,0.0213
CGCGACGC,0.429
AGCGCCTC,0.229
AAGCCATT,-0.0566
CGTAAACA,0.111
GCGTTAGC,0.248
AGGTTGGC,-0.168
ACATCGGG,0.112
CGCCCACG,0.3
ACTCAAGA,-0.21
CCGGGCCC,0.304
AACGCTAG,0.0336
TGACACAA,-0.11
TTAGGGAA,-0.127

# Block 4
# Target: CCNB1, cyclin fold, Cln2 fusion (human)
# Technique: yeast growth competition, sequencing
# Medium: yeast
# Notes: strong parent motif
# Baseline: not given
# Reading: higher = stronger binding
# Parent: MASTL docking peptide (human); PMIAKNLMCELDE
Change,normalised enrichment score
E10N,0.411
M8V,0.554
L11K,0.156
E10F,0.563
L11P,-0.215
A4C,2.79
I3A,0.375
K5F,0.295
M2V,2.2
D12P,0.346
K5N,0.533
C9A,2.98
E10K,0.392
C9D,2.56
M2C,2.48
L11H,0.329
M8L,1.99
E10V,0.904
E10R,0.498
C9L,2.09
I3Q,-0.151
M8K,0.357
D12E,1.93

# For quick reference, copied from above (block 3):
Sequence,E-score
ACGCCGTC,0.416
GCCAGCTA,-0.119
AAGTGGAC,-0.153
ACTTCAAC,-0.153
ATATGGAG,-0.0763
